Measured values pooled from the literature.
Protocols differ between the studies behind these lines. Numbers after ± are the reported error. ≈ marks a conversion by molar mass, not a printed value.

Structure (SMILES)	test	test system	setting	how to read	measurement	value
N#Cc1cnc2cc(OCC3CCNCC3)c(F)cc2c1Nc1cc(F)c(OCc2cccc(Cl)n2)cc1Cl		male beagle dog, plasma	oral, 5 mg/kg		Cmax	210 ng/mL
COc1cc(C)c(Cc2ccc(O)cc2)cc1[C@@H]1S[C@H](CO)[C@@H](O)[C@H](O)[C@H]1O		Japanese T2DM patients, plasma	1 mg luseogliflozin, day 1, once daily		Tmax	4.75 ± 1.83 h
Cc1ccc(/N=N/c2c(O)ccc3ccccc23)c(C)c1		extracted rat blood QC samples	0.5 µg/L, 2 h, room temperature, short-term stability		measured concentration	0.486 µg/L
Cc1ccc(NCC(=O)Nc2ccc(F)c(Cl)c2)cc1S(=O)(=O)N1CCCCC1		water			kinetic solubility	55 µM (≈ 24.2 µg/mL)
Cn1c(=O)oc2ccc(-c3ccc(CC(C#N)NC(=O)C4CNCCCO4)c(F)c3)cc21 (stereo not drawn)		human	oral, 10 mg once daily, treatment-related AE, multiple ascending dose		skin exfoliation incidence	0%
C[C@H](NC(=O)COC(=O)[C@H](C)NC(=O)CO)C(=O)O		water	pH 7, 50 °C		depolymerization half-life	1.8 min
CC(C)c1cnc(-c2cc(Cl)ccc2F)cc1Nc1ccncc1C(=O)NC(CO)CO	refers to: hypotension	human patients	oral, dose not given, grade 2		patients with related SAE	0%
Cc1noc(C)c1Cn1cc(N2C(=O)CN(Cc3cccc(OS(=O)(=O)O)c3)C2=O)cn1		rat Sprague-Dawley male, plasma	oral, 30 mg/kg of parent drug		half-life	2.5 h
C#CCOc1ccc(/C=C2\SC(=O)N(CC(=O)NCc3ccccc3)C2=O)cc1	inverse Kirkwood-Buff integrals	binary solvent mixture	298.15 K, mole fraction x1 0.55		Kirkwood-Buff integral G1,3	-261 cm³/mol
O=C(O)C1CN(Cc2ccc(-c3noc(-c4ccc(OCC[18F])c(C(F)(F)F)c4)n3)cc2)C1		rat, kidney	intravenous, 2 h		tracer uptake	0.845 %ID/g
NS(=O)(=O)c1ccc(N2N=C(C(F)(F)F)CC2c2ccc(F)cc2F)cc1 (stereo not drawn)		Beagle dog, both sexes, plasma	oral, 1 mg/kg, single dose		AUC(0-t)	14500 ± 10800 ng·h/mL
COC(=O)C1OC(Oc2c(-c3ccccc3)oc3cc(O)c(O)c(O)c3c2=O)C(O)C(O)C1O (stereo not drawn)		BALB/c mouse, spleen	1 mg/kg		organ weight	0.79 ± 0.6 g
CCCC[C@H](NC(C)=O)C(=O)N[C@H]1CC(=O)NCCCC[C@@H](C(=O)N[C@@H](C(=O)N2CCC[C@@H]2C(N)=O)C(C)C)NC(=O)[C@H](Cc2c[nH]c3ccccc23)NC(=O)[C@H](CCCN=C(N)N)NC(=O)[C@@H](Cc2ccc3ccccc3c2)NC(=O)[C@@H]2CCCN2C1=O		healthy dogs, plasma	subcutaneous, 2.25 mg/kg per day, day 28, 1 h post-dose, median		plasma histamine	15.7 ng/mL
C[C@H](Oc1cc(-c2cnn(C3CCN(CC[18F])CC3)c2)cnc1N)c1c(Cl)ccc(F)c1Cl	PET imaging	nude mouse, muscle	iv, 5 min post injection		tracer uptake	2 ± 0.6 %ID/cc
CN1C(=O)[C@@H](Cc2ccc(O)cc2)NC(=O)CNC(=O)[C@H](Cc2ccc3ccccc3c2)NC(=O)[C@H](CCCNC(=N)N)NC(=O)[C@H]1CCCNC(=O)c1ccc(CNC(=O)CN2CCN(CC(=O)O)CCN(CC(=O)O)CCN(CC(=O)O)CC2)cc1 [gallium-68 labelled]		human patients	dose not given, vital signs and blood counts		tolerability	not toxic
Cc1[nH]c(/C=C2\C(=O)Nc3ccc(F)cc32)c(C)c1NC(=O)CCN1CCN(C)CC1		Beagle dog, both sexes, plasma	oral, 3 mg/kg		AUC(0-t)	836 ± 231 ng·h/mL
Nc1ncnc2c1ncn2CC(=O)N[C@@H](Cc1ccccc1)C(=O)N[C@@H](Cc1ccccc1)C(=O)N[C@H]1C(O)O[C@H](CO)[C@@H](O)[C@@H]1O (stereo partly drawn)		water	3.0 wt%, pH-triggered gelation		pH of hydrogelation	~5

Structure (SMILES)	test	test system	setting	how to read	measurement	value
CCCC[C@H](NC(=O)CNC(=O)CNC(=O)CN1CCN(CC(=O)O)CCN(CC(=O)O)CCN(CC(=O)O)CC1)C(=O)N[C@H]1CC(=O)NCCCC[C@@H](C(N)=O)NC(=O)[C@H](Cc2c[nH]c3ccccc23)NC(=O)[C@H](CCCNC(=N)N)NC(=O)[C@@H](Cc2ccccc2)NC(=O)[C@H](Cc2c[nH]cn2)NC1=O [gallium-67 labelled]		C57 mice, female, B16/F1 melanoma, tumour over blood	intravenous, 0.037 MBq, 2 h		tumour to tissue uptake ratio	26.2
Cc1cc2c(cc1C1(c3ncc(C(=O)O)cn3)CC1)C(C)(C)CCC2(C)C		Sprague-Dawley rat, male, plasma	oral, 100 mg/kg, 6 h, sesame oil vehicle		LDL level	9 ± 5.5 mg/dL
CC[C@H](C)[C@H](NC(=O)[C@H](CCCNC(=N)N)NC(=O)[C@@H](NC(=O)[C@H](CO)NC(=O)[C@@H](NC(=O)[C@@H](NC(=O)[C@H](CS)NC(=O)[C@H](CCCCN)NC(=O)[C@@H](N)CCCNC(=N)N)C(C)C)[C@@H](C)CC)C(C)C)C(=O)N[C@@H](CCCNC(=N)N)C(=O)N[C@@H](CC(N)=O)C(=O)N[C@@H](CCCNC(=N)N)C(=O)N[C@@H](CCCNC(=N)N)C(=O)N[C@@H](C)C(=O)N[C@@H](CC(N)=O)C(=O)N[C@H](C(=O)N[C@@H](CCCCN)C(=O)N[C@H](C(=O)N[C@@H](CC(C)C)C(=O)N[C@@H](CS)C(=O)N[C@@H](CC(N)=O)C(=O)O)[C@@H](C)CC)[C@@H](C)CC	LC-MS	PBS	0.1 mg/mL		single disulfide form	39%
C[Si](C)(C)C[C@H](CN)CC(=O)O	neuromuscular coordination	Wistar rat male	oral, 300 mg/kg, 3 h		performance time	178 s
CC(=O)OC[C@H]1O[C@@H](Sc2sc(C(=O)c3ccc(Br)cc3)c(N)c2-c2nc3ccccc3s2)[C@H](OC(C)=O)[C@@H](OC(C)=O)[C@@H]1OC(C)=O		DMEM	72 h		maximum nontoxic concentration	100 µg/mL
O=C(NC1CCCC1)N1CCC=C(c2cc3c(Nc4cc5ncsc5cc4F)ncnc3s2)C1		human liver microsomes	1 µM		intrinsic clearance	< 12 mL/min/g protein
N=C(N)NCCC[C@@H]1NC(=O)[C@H](Cc2c[nH]c3ccccc23)NC(=O)[C@@H](CC2CCCCC2)NC(=O)[C@@H]2CCCN2C(=O)[C@@H](NC(=O)CCc2ccccc2)CCCNC1=O	two-compartment model	C57BL/6J mice, brain	intraperitoneal, 1 mg/kg		beta rate constant	0.23 h⁻¹
CC(C)(O)c1ncc([S@](N)(=O)=NC(=O)Nc2c3c(cc4c2CCC4)CCC3)s1		healthy human, fed	oral, 25 mg twice daily, day 1, tablet formulation, geometric mean		Cmax	2030 ng/mL
CC/C=C\C/C=C\C/C=C\C/C=C\C/C=C\CCCCOC(CC)C(=O)O (stereo not drawn)	[14C] label	male Wistar rat, muscle	oral, 100 mg/kg, 1 day		radioactivity concentration	1.2 µg equiv/g
COc1ccc(/C=C/c2ccc(-c3ccc(C)cn3)nc2)cc1	TCSPC	dioxane			radiative decay rate constant	0.6 ns⁻¹
COc1cc2c(cc1OC)CN(CCCCn1ccc3cc(OCC[18F])ccc31)C2		male CD-1 mouse, kidney	intravenous, 15 min		tracer uptake	15 %ID/g
Oc1ccc2ccccc2c1/N=N/c1ccc(/N=N/c2ccccc2)cc1		rat whole blood	16.0 µg/L, freeze-thaw cycle 3		freeze-thaw stability deviation	-0.9%
CC(C)C[C@@H](NC(=O)[C@H](NC(=O)[C@H]1CCCN1)[C@H](C)O)C(=O)N[C@H](Cc1c[nH]cn1)C(=O)N[C@@H](C(=O)N[C@H](Cc1c[nH]cn1)C(=O)N[C@H](CC(N)=O)C(=O)N[C@H](CCCNC(=N)N)C(=O)N[C@H](CCCNC(=N)N)C(=O)N[C@H](CCCNC(=N)N)C(=O)N[C@H](CCCNC(=N)N)C(=O)N[C@H](CCCNC(=N)N)C(N)=O)[C@H](C)O		Beagle dog, CSF	intravenous, 3 mg/kg, single dose		AUC(0-inf)	990 ± 383 ng·h/mL
CC(C)C[C@H](NC(=O)C[C@H](O)[C@H](CC(C)C)NC(=O)[C@H](Cc1c[nH]cn1)NC(=O)CNC(=O)[C@@H](NC(=O)[C@H](C)NC(=O)[C@H](Cc1c[nH]c2ccccc12)NC(=O)[C@H](CCC(N)=O)NC(=O)[C@@H](Cc1ccccc1)NC(=O)CCNC(=O)CCNC(=O)CN1CCN(CC(=O)O)CCN(CC(=O)O)CCN(CC(=O)O)CC1)C(C)C)C(N)=O [lutetium-177 labelled]	MIRD	mouse PC-3 xenograft, kidneys	intravenous, 50 MBq, without PA		absorbed dose	3.5 Gy
CC(C)CCCC(C)CCCC(C)CCO[C@@H]1O[C@H](CO)[C@@H](O[C@H]2O[C@H](CO)[C@@H](O)[C@H](O)[C@H]2O)[C@H](O)[C@H]1O (stereo partly drawn)	dynamic surface tension		0.0036 mmol/L		surface tension at induction time	65.5 mN/m
CCCC(CCC)NC(=O)c1ccc(OS(=O)(=O)O)c(OC)c1		female Sprague-Dawley rats, plasma	oral, 200 mg/kg of parent drug	relative to: 200 over 20 mg/kg dose	AUC(0-last) ratio	6.1
